Published values gathered from unrelated publications.
Each numbered part is a random draw from the data of one study; scales do not carry over between parts.

Set 1
Target: Prothrombin, mature alpha-thrombin (F2, Homo sapiens, UniProt P00734)
Method: aptamer microarray, sandwich
Molecule type: DNA with 2'F-ANA
Sample: in vitro
Concentration: 200 nM
Notes: whole 15-mer aptamer, many near background
Added: Cy3 exosite-II aptamer, 400 nM
Direction: higher = stronger binding
Oligonucleotide: GGTTGGTGTGGTTGG
| Modification | mean fluorescence intensity |
| --- | --- |
| 2'F-ANA at 2 4 8 9 11 12 13 14 15 | 96.6 a.u. |
| 2'F-ANA at 5 6 7 8 9 10 13 14 15 | 45.7 a.u. |
| 2'F-ANA at 3 5 6 8 13 15 | 84.3 a.u. |
| 2'F-ANA at 4 6 8 11 12 14 15 | 97.7 a.u. |
| 2'F-ANA at 1 2 4 6 10 13 | 54.9 a.u. |
| 2'F-ANA at 1 2 3 5 8 9 12 14 | 45.2 a.u. |
| 2'F-ANA at 1 2 7 8 13 14 15 | 90.2 a.u. |
| 2'F-ANA at 2 4 6 7 8 9 10 12 13 14 15 | 61.5 a.u. |
| 2'F-ANA at 3 4 5 8 9 11 12 13 14 | 56.5 a.u. |
| 2'F-ANA at 1 3 4 6 9 13 14 | 63.7 a.u. |
| 2'F-ANA at 1 2 4 8 9 12 | 365 a.u. |
| 2'F-ANA at 3 7 8 10 12 15 | 796 a.u. |
| 2'F-ANA at 1 3 5 6 8 10 12 15 | 50.2 a.u. |
| 2'F-ANA at 1 2 9 10 11 12 14 | 70.4 a.u. |
| 2'F-ANA at 1 2 4 5 8 13 | 47.4 a.u. |
| 2'F-ANA at 2 6 12 14 | 172 a.u. |
| 2'F-ANA at 2 3 4 6 7 9 10 11 13 | 190 a.u. |
| 2'F-ANA at 1 2 3 6 9 10 11 12 13 15 | 77.4 a.u. |
| 2'F-ANA at 1 2 3 5 6 7 8 12 | 137 a.u. |

Set 2
Target: Sal-like protein 4, full length isoform A (SALL4, Homo sapiens, UniProt Q9UJQ4, residues 1-1053)
UniProt Q9UJQ4, sequence (whole entry, looked up): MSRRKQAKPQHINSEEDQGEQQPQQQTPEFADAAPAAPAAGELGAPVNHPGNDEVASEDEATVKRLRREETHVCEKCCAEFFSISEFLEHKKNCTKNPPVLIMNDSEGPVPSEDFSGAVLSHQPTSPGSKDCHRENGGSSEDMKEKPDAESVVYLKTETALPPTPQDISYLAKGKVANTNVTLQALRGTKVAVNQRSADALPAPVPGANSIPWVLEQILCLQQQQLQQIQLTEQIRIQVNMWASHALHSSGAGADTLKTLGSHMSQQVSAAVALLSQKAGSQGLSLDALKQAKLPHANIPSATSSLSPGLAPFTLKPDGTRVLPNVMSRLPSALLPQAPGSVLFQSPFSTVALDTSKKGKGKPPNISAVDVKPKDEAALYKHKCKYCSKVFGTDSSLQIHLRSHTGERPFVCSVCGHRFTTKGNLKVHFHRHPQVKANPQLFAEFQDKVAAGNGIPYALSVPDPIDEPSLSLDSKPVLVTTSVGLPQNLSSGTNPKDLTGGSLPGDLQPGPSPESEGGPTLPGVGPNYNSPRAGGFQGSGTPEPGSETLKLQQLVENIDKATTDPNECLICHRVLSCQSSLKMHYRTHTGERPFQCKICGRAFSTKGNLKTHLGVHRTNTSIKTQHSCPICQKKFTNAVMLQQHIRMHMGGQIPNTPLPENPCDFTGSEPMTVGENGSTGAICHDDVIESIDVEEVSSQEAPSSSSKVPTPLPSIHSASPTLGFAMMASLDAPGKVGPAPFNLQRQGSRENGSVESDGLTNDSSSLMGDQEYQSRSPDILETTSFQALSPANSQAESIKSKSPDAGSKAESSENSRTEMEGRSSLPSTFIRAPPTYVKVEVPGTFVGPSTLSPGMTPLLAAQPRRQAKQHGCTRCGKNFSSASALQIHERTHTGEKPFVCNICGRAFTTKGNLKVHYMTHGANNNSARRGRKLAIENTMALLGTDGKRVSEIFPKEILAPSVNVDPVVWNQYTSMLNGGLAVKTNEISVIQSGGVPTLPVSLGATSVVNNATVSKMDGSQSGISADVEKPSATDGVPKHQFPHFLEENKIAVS
Method: universal PBM
Molecule type: double-stranded DNA, one strand shown
Sample: in vitro
Concentration: 600 nM
Notes: 8-mer, flanks averaged, mean of replicates
Direction: higher = stronger binding
| Oligonucleotide | E-score |
| --- | --- |
| TACTGGGA | 0.0585 |
| AGAGTGCT | 0.0295 |
| GCGCTAAC | -0.0143 |
| ATAGCGTA | 0.119 |
| AAGATATT | 0.302 |
| CACTAACC | -0.159 |
| CTATTAGA | 0.227 |
| CGGCATAG | -0.0334 |
| CTATAGCA | 0.188 |
| ATCCAGCG | -0.112 |
| CTCCGCGC | -0.306 |
| AATGTGGG | 0.103 |
| TGAACCAA | 0.155 |
| CGAACAAG | -0.135 |
| AGGTTTTA | 0.0569 |
| CTTCGCAC | -0.0167 |
| CTATTGCA | 0.212 |

Set 3
Target: Histone acetyltransferase KAT6A, winged helix 1, GST fusion (KAT6A, Homo sapiens, UniProt Q92794, residues 1-85)
Method: protein binding microarray
Molecule type: double-stranded DNA, one strand shown
Sample: in vitro
Concentration: not given
Notes: 8-mer, flanks averaged, mean of 2 arrays, mostly near background
Reference: not given
Direction: higher = stronger binding
Residues (chain): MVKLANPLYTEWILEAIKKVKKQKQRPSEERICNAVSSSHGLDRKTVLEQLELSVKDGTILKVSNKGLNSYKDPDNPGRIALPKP
| Oligonucleotide | E-score |
| --- | --- |
| CCTGGATA | 0.00285 |
| AAAAGGTT | -0.00984 |
| CGCCTCAC | 0.0969 |
| ACGAGCAC | -0.166 |
| AGGCTTGG | -0.111 |
| ACTGTTTA | -0.0666 |
| AGTGCAAA | -0.264 |
| GACGATAA | -0.0223 |
| GTACACGA | -0.116 |
| CCATGGGG | -0.101 |
| TGTAAGAA | -0.0591 |
| ACCTAAAT | -0.087 |
| AAGCAACC | 0.0112 |
| ACTATTGG | 0.142 |
| TGGAAACA | -0.224 |
| CGTACTCC | 0.118 |

Set 4
Target: Cyclic AMP-dependent transcription factor ATF-1 (ATF1, Homo sapiens, UniProt P18846, residues 1-271, full length assumed)
Method: protein-binding microarray
Molecule type: double-stranded DNA, one strand shown
Sample: in vitro
Concentration: not given
Notes: k-mer, scored over probes, only values ≥0.25
Direction: higher = stronger binding
Target sequence (chain): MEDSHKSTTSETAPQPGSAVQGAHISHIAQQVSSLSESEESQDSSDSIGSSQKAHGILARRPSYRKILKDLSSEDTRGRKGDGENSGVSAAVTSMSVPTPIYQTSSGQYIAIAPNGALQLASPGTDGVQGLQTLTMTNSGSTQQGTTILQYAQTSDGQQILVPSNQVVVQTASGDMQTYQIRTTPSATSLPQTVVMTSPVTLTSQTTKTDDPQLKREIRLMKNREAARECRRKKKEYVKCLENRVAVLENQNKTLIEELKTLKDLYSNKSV
| Oligonucleotide | E-score |
| --- | --- |
| GACGTTA | 0.374 |
| TCCACGA | 0.254 |
| TACGACA | 0.278 |
| ACGTGGA | 0.318 |
| GCGTGAC | 0.373 |
| ACGAAAC | 0.329 |
| CCGCCCC | 0.28 |
| ACGTAGG | 0.413 |
| CATCACG | 0.332 |
| AGCTTAC | 0.251 |
| ACGTTGA | 0.315 |
| CACATAC | 0.276 |
| CTACGTC | 0.441 |
| ACGTGGC | 0.278 |
| GACGTAA | 0.455 |
| CGTAGAC | 0.304 |
| ACGCGGA | 0.269 |
| GTCGTCA | 0.391 |
| GTCACAA | 0.348 |
| GGGTGAC | 0.349 |
| GGATGAC | 0.337 |
| AACGTAC | 0.278 |
| GTCACCA | 0.341 |
| ACCGTCA | 0.345 |
| CAACACG | 0.278 |

Set 5
Target: RNA binding protein fox-1 homolog 2, RRM domain, GST-SBP tag (RBFOX2, Homo sapiens, UniProt O43251-10, residues 100-194)
Method: RNA Bind-n-Seq
Molecule type: RNA
Sample: in vitro
Concentration: 365 nM
Notes: natural RNA segment, single round, ends assumed
Reference: no-protein control
Direction: higher = stronger binding
Target sequence (chain): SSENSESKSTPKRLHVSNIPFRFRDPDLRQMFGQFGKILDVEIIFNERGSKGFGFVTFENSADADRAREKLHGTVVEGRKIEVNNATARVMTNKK
| Oligonucleotide | RBNS enrichment (R) |
| --- | --- |
| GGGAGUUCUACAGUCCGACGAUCUCCUGCAGAAGUGGCCCUGGAGAUUGAGGGUCCCUGGACACUCCCUAUGGAGAUCCGGGGAGCUAGGAUGGGGAACCUGCCACAGCCAGAACUGAGGGGCUGGCCCCAGGUGGAAUUCUCGGGUGCCAA | 0.483 |
| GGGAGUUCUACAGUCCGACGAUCCCUUCUUUGAAGAGAAUCCCAAAAGUUAGUUCAUCUUAAAGUGCAAUAUUGUUUAAUCUUAAAACUGGGCAACUUUGGAAGAACUUUUAACAGAAGCCUCAAUGAUGAUCUGGAAUUCUCGGGUGCCAA | 0.254 |
| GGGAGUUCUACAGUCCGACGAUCAUUGAAUCUAUUGUAUUUCCCUCUUGAUAUUCUACCAUGGUGAUGUCAGCUCAUUUCUAAGAUGCCUUCAGAGAUCUGAGACAUGACAUUAAGAAUGGAGUAGUAACUAGUGGAAUUCUCGGGUGCCAA | 0.263 |
| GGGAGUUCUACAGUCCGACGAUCAAUUCACAUUCCUUAUUCUGAGAAUUUGGCCCCAGCUGUUUGCCUUUGACUCCCUGACCUCCAGAGCCAGGGUUGUGCCUUAUUGUCCCAUCUGUGGGCCUCAUUCUGCCUGGAAUUCUCGGGUGCCAA | 0.421 |
| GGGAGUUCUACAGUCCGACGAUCGCCACCACGUGACGCUGUUCUUAGUUCACUAAUGUUAGCCUUAUUUAGGACAAAGUCAGCCAGACACCUUGUACUGGGCACGCGUCAGACUGCAGCCAGUCCGUUUCCUUUGGAAUUCUCGGGUGCCAA | 0.32 |
| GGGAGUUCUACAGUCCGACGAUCUAUCACAAACUUUAAAAUGUGAAGAUUCCUGUCUCUCCCGUGGUUUUAAAGGCAAGUGGUGUCCAAGAAACAGAGCAUCCUUCCUGCCGUUCAACGCUCAGCUUUUCCGAUGGAAUUCUCGGGUGCCAA | 0.534 |
| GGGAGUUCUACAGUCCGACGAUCCAUGGGCUCUCCGUGGUGAAGAACAAAGGGUACCCCAAUGGCCUCUCACCAUCACUGUCCUCCAGGGGCCUCGGACUUUUAGUACUCAAGGCAUGAUGUGGCAGUAGCUGUGGAAUUCUCGGGUGCCAA | 1.78 |
| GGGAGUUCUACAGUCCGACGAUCAAAUGUAUAUAACAUUAAUAAUGUCGCGUAGGUGUAGGUUCCUGGAUGCAUUUGGAUGUACAGACUGACUGGGGGACUGUAUUGCGAUGAUGAUUGGUGUAGAAACGUAUUGGAAUUCUCGGGUGCCAA | 1.91 |
| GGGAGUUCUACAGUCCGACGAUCAGGGAGGACCUGUUGUGUUCCAGCCAUUCUGGUAUUCCUUUAUGUAUCUAAUUUCAUUCAAACCUCACAACAGUCUUGUGAGGCCCUUAUAUAAUUACUCCCAUUUUGCAUGGAAUUCUCGGGUGCCAA | 1.53 |
| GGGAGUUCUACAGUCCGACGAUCAUACCUAUGUUCGAUUUUGUUUUGUUUUGUUUUGUUCUGGCUUUGAGGCUUGUUUUGUUGUCUGUGUCUGUCUGAAUAACCUGCGUGUCUAAAACCACGUGAAAUGUGAAUGGAAUUCUCGGGUGCCAA | 22.9 |
| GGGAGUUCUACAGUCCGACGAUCUAUUCAUUUCAGUAGAAGAUAAUCUUAUCUAAUUUUUGAGACCAGAAUAAGCCUUUUAAGGUAAACCUCAAAAUUAUCAUUUUAUGGUAAUACUGACCAUUUUAGUCCCCUGGAAUUCUCGGGUGCCAA | 0.381 |
| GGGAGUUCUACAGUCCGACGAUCCCUGGUUUGUUUCUGACAAAGUUACAGUCCUGGGCCUGUAAUGAAUGUCGGCGGCGCUGGGGUUGCAGGGAAAAGACAAAUCCUCAAAGCGUGGACGUGUGUCCCCAUGGUGGAAUUCUCGGGUGCCAA | 0.347 |

Some of these lines once more (set 5):
| Oligonucleotide | RBNS enrichment (R) |
| --- | --- |
| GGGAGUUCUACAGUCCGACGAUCAUUGAAUCUAUUGUAUUUCCCUCUUGAUAUUCUACCAUGGUGAUGUCAGCUCAUUUCUAAGAUGCCUUCAGAGAUCUGAGACAUGACAUUAAGAAUGGAGUAGUAACUAGUGGAAUUCUCGGGUGCCAA | 0.263 |
| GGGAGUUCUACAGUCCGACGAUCUAUUCAUUUCAGUAGAAGAUAAUCUUAUCUAAUUUUUGAGACCAGAAUAAGCCUUUUAAGGUAAACCUCAAAAUUAUCAUUUUAUGGUAAUACUGACCAUUUUAGUCCCCUGGAAUUCUCGGGUGCCAA | 0.381 |
| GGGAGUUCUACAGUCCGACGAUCAGGGAGGACCUGUUGUGUUCCAGCCAUUCUGGUAUUCCUUUAUGUAUCUAAUUUCAUUCAAACCUCACAACAGUCUUGUGAGGCCCUUAUAUAAUUACUCCCAUUUUGCAUGGAAUUCUCGGGUGCCAA | 1.53 |
| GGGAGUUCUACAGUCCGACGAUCCCUUCUUUGAAGAGAAUCCCAAAAGUUAGUUCAUCUUAAAGUGCAAUAUUGUUUAAUCUUAAAACUGGGCAACUUUGGAAGAACUUUUAACAGAAGCCUCAAUGAUGAUCUGGAAUUCUCGGGUGCCAA | 0.254 |
| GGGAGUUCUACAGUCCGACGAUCCAUGGGCUCUCCGUGGUGAAGAACAAAGGGUACCCCAAUGGCCUCUCACCAUCACUGUCCUCCAGGGGCCUCGGACUUUUAGUACUCAAGGCAUGAUGUGGCAGUAGCUGUGGAAUUCUCGGGUGCCAA | 1.78 |
| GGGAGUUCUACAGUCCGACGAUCUCCUGCAGAAGUGGCCCUGGAGAUUGAGGGUCCCUGGACACUCCCUAUGGAGAUCCGGGGAGCUAGGAUGGGGAACCUGCCACAGCCAGAACUGAGGGGCUGGCCCCAGGUGGAAUUCUCGGGUGCCAA | 0.483 |
| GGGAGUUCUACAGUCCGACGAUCUAUCACAAACUUUAAAAUGUGAAGAUUCCUGUCUCUCCCGUGGUUUUAAAGGCAAGUGGUGUCCAAGAAACAGAGCAUCCUUCCUGCCGUUCAACGCUCAGCUUUUCCGAUGGAAUUCUCGGGUGCCAA | 0.534 |
| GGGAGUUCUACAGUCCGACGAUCAUACCUAUGUUCGAUUUUGUUUUGUUUUGUUUUGUUCUGGCUUUGAGGCUUGUUUUGUUGUCUGUGUCUGUCUGAAUAACCUGCGUGUCUAAAACCACGUGAAAUGUGAAUGGAAUUCUCGGGUGCCAA | 22.9 |
